{"data": "Published values of several laboratories", "note": "Numbered parts are unrelated; each lists some results of a single study. Substitutions count along the parent as printed."}
{"data": "Block 1", "target": "CCNB1, cyclin fold, Cln2 fusion (human)", "method": "yeast growth competition, sequencing", "medium": "yeast", "setting": "weak parent motif", "relative to": "not given", "direction": "higher = stronger binding", "starting sequence": "E2F8 docking peptide (human); FVPQRKLEVSTED"}
{"Variant": "R5K V9L", "normalised enrichment score": -0.074}
{"Variant": "R5K", "normalised enrichment score": 0.231}
{"Variant": "F1A", "normalised enrichment score": 0.479}
{"Variant": "V2A", "normalised enrichment score": 0.465}
{"data": "Block 2", "target": "PABPC1L2, full length, GST fusion (mouse, UniProt A0ABA7IW68)", "method": "RNAcompete", "molecule type": "RNA", "medium": "in vitro", "tested at": "20 nM", "setting": "7-mer, probes averaged, single round", "relative to": "mean of 7-mers", "direction": "higher = stronger binding", "Construct (chain)": "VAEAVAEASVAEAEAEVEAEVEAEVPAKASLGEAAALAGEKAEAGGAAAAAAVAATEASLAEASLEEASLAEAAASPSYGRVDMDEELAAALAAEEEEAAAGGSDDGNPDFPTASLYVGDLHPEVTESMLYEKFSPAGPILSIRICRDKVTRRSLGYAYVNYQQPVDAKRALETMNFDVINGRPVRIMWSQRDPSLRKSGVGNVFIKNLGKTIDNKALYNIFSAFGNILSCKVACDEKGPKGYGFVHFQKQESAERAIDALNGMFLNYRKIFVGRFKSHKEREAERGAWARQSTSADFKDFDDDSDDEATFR"}
{"Sequence": "GGUGGUA", "7-mer Z-score": 0.153}
{"Sequence": "CCGUCCC", "7-mer Z-score": -0.474}
{"Sequence": "GUGUAAA", "7-mer Z-score": 0.878}
{"Sequence": "GUUGCAC", "7-mer Z-score": -0.121}
{"Sequence": "UGUCCGG", "7-mer Z-score": -0.264}
{"Sequence": "AAGUGCG", "7-mer Z-score": 0.361}
{"Sequence": "GUCUCCC", "7-mer Z-score": -0.367}
{"data": "Block 3", "target": "Histone acetyltransferase KAT6A, winged helix 2, GST fusion (KAT6A, Homo sapiens, UniProt Q92794, residues 85-181)", "method": "protein binding microarray", "molecule type": "double-stranded DNA, one strand shown", "medium": "in vitro", "tested at": "not given", "setting": "8-mer, flanks averaged, mean of 2 arrays, mostly near background", "relative to": "not given", "direction": "higher = stronger binding", "Residues (chain)": "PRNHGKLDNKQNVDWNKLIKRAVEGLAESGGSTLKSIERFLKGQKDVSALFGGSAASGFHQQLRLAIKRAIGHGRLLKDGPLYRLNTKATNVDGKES"}
{"Sequence": "CTTACGGC", "E-score": 0.00939}
{"Sequence": "TTCGTAAA", "E-score": -0.0507}
{"Sequence": "CTAGACTA", "E-score": -0.213}
{"Sequence": "AACTTACA", "E-score": -0.0411}
{"Sequence": "AAATAACT", "E-score": 0.0313}
{"Sequence": "CGACAGAC", "E-score": -0.0397}
{"Sequence": "GACTACTC", "E-score": -0.118}
{"Sequence": "ATGTGCGA", "E-score": 0.101}
{"Sequence": "AAAACTTT", "E-score": -0.0699}
{"data": "Further values, each from its own experiment"}
{"Molecule": "PhoQ, residues 284 288 289 292 302 303 TLASMF", "target": "PhoP, residues 12 14 15 18 19 HLGGL (Escherichia coli, UniProt P23836)", "test": "Sort-seq, refers to: YFP reporter", "test system": "E. coli", "setting": "PhoQ-PhoP variant library, together with: 10 µM Mg2+", "how to read": "relative to: high Mg2+ state, higher = stronger signaling", "measurement": "fold induction", "result": 14.1}
{"note": "A few entries again (block 1):"}
{"Variant": "R5K V9L", "normalised enrichment score": -0.074}
{"Variant": "V2A", "normalised enrichment score": 0.465}
